Results of several laboratories.
Parts stem from different laboratories: compare values within a part only.

Block 1
Target: Interferon regulatory factor 7, full length, phosphomimetic (IRF7, Homo sapiens, UniProt Q92985, residues 1-503, S471D/S472D/S475D/S476D/S477D/S483D/S484D/S487D)
Sequence of UniProt Q92985 (whole entry, unmodified, looked up): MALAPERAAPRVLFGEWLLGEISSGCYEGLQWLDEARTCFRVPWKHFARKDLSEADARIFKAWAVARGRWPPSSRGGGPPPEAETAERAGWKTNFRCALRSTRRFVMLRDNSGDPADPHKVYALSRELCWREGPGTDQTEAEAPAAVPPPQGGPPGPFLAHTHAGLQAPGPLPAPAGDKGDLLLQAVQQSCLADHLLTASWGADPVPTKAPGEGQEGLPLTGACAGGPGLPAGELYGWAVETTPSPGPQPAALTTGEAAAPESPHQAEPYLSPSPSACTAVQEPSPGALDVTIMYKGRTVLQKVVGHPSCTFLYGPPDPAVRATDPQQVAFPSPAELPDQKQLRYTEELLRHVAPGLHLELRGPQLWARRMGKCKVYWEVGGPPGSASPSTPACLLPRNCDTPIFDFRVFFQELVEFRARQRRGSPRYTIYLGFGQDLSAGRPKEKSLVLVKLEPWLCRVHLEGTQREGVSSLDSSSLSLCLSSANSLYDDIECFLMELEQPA
Method: protein-binding microarray
Molecule type: double-stranded DNA, one strand shown
Matrix: in vitro
Concentration: 2200 nM top
Setting: 60-bp whole probe
With: salmon DNA 0.4 mg/ml
Relative to: random background probes
Reading: higher = stronger binding
All sequences stand within: GCCTAGCAC … GTCTTGATTCGCTTGACGCTGCTG
| Strand | fitted relative affinity |
| --- | --- |
| TTAGGTTCCCTTCTCCTTTAGTGCTAG | 1.89 z-score |
| TCACGCTTCATCTCCCAGACTGTGCTA | 2.12 z-score |
| GACGATTTCGAGTTTCGAGACGTGCTA | 4.6 z-score |
| GACGCTTTCGGGTTTCGGGACGTGCTA | 10.5 z-score |
| TTAGAACTGAGACTGGATGAGTGCTAG | -0.68 z-score |
| TCAGTCCTGGCTTTGACACTGTGCTAG | 0.535 z-score |
| GACGAACTGAGTCTCGAAACGTGCTAG | 0.215 z-score |
| TGAAGTTTTAATAACACAGAGTGCTAG | -1.04 z-score |

Block 2
Target: Histone acetyltransferase KAT6A, both winged helices, GST fusion (KAT6A, Homo sapiens, UniProt Q92794, residues 1-181)
Method: protein binding microarray
Molecule type: double-stranded DNA, one strand shown
Matrix: in vitro
Concentration: not given
Setting: 8-mer, flanks averaged, mean of 2 arrays, mostly near background
Relative to: not given
Reading: higher = stronger binding
Construct (chain): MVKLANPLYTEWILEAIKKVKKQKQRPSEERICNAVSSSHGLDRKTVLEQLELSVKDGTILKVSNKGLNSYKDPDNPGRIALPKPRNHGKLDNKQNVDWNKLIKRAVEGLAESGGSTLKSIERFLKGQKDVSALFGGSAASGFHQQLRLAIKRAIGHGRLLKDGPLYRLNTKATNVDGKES
| Strand | E-score |
| --- | --- |
| CTCCCCCA | -0.156 |
| CTAAAAGA | -0.176 |
| AATCGTGG | -0.177 |
| ATAATGTG | -0.0736 |
| GCGCTTTA | 0.221 |
| AAGTACAA | -0.0681 |

Block 3
Target: RNA binding protein fox-1 homolog 2, RRM domain, GST-SBP tag (RBFOX2, Homo sapiens, UniProt O43251-10, residues 100-194)
Method: RNA Bind-n-Seq
Molecule type: RNA
Matrix: in vitro
Concentration: 365 nM
Setting: natural RNA segment, single round, ends assumed
Relative to: no-protein control
Reading: higher = stronger binding
All sequences stand within: GGGAGUUCUACAGUCCGACGAUC … UGGAAUUCUCGGGUGCCAA
Residues (chain): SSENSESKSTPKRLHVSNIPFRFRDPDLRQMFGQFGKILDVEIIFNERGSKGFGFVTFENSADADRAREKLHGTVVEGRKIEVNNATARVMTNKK
| Strand | RBNS enrichment (R) |
| --- | --- |
| GAGGGCUGCUCCGGAGACCGUCACUCCAGGUGCAUUCUGGAAGCAUUAGACCCCAGGAUGGAGCGACCAGCAUGUCAUCCAUGUGGAAUCUUGGUGGCUUUGAGGACAUU | 2.83 |
| GACGGGCAGGGUCUCCUGAGCAGCAGGUGGCUCGAGGCGGUUAGCAGGCUCCAGCAGCUCCCUUCUUCCUUCCCUCUGUGCCCGUGGCGUCUGCUUCCCAUCCUGGGAGU | 0.343 |
| UUUCUUUGUACUUGAAAUUUUAAGAAACCAGAAACAAGUAAAUCUGGUUGUAUCUAGAUCUUUGCUCUGUGUUUCAGUUGUGCCUUACCCUCUGUAAGAUACUGAUUCUU | 0.406 |
| UUGCUAUAUUGACAGAUUCUUGCCUGUCUGUGUUAUUCUAGGAUCUGUUACAGGUCCAUGGCAAUUACUGUUUAUUUUUUCCUGGAAAAAUAUUUUUUUAUAAAAGGCUU | 0.729 |
| GACCCCACGCUCUCCCAACGCCCAGACUAUGUGGAGCUGCCAAGCCCCUGUCUGGGCACCUCUGCCCUGCCUGUCUGCUGCCCGGAUCCUCCUCACUUAGCACCUAGGGG | 1.66 |

Other studies, line by line
| Molecule | target | test | test system | conditions | how to read | endpoint | result |
| --- | --- | --- | --- | --- | --- | --- | --- |
| PhoQ, residues 284 288 289 292 302 303 SSCCRF | PhoP, residues 12 14 15 18 19 SYFRT (Escherichia coli, UniProt P23836) | Sort-seq, measured: YFP reporter | E. coli | PhoQ-PhoP variant library, with: 10 µM Mg2+ | relative to: high Mg2+ state, higher = stronger signaling | fold induction | 11.4 |

A few entries again (block 1):
| Strand | fitted relative affinity |
| --- | --- |
| TCAGTCCTGGCTTTGACACTGTGCTAG | 0.535 z-score |
| GACGAACTGAGTCTCGAAACGTGCTAG | 0.215 z-score |
